Assay results of several laboratories.
± gives the spread as reported. Positions of bridges follow the written chain, without caps; N, C: chain ends. No end group written: not given here.

| Substance | cell line | assay | test system | setting | scale | endpoint | result |
| --- | --- | --- | --- | --- | --- | --- | --- |
| Cl.Cl.O=C(Nc1ccc(O[C@H]2CCNC2)c(-c2ccc(F)cc2)c1)c1ccc(O[C@H]2CCNC2)c(-c2ccc(F)c(F)c2)c1 | MDA-MB-231 | trypsin-EDTA digestion vs solvent extraction | – | concentration not given, 6 h | – | nonspecific binding | 18% |
| Cc1cn(Cc2ccc(O)c(C=O)c2)c(=O)[nH]c1=O | HEL fibroblasts | cell morphology, microscopy | – | – | – | minimum cytotoxic concentration | ≥ 100 µM |
| Nc1ncnn2c([C@@H]3O[C@H](CO)[C@@H](O)[C@H]3O)ccc12 | Vero E6 | – | – | concentration not given | – | cytotoxicity | toxic |
| CCCCN(CCCC)N=O | TK6 | UPLC-MS/MS | medium with Aroclor-induced rat or hamster S9 | 12.5 µM, 24 h | relative to: medium without cells | remaining compound | < 0.5% |
| CCOP(=O)([O-])OCC.CCn1cc[n+](C)c1 | human iPSC-derived cardiomyocytes | mitochondrial membrane potential | – | 30 min | – | point of departure | < 30 µM |
| C=C(C[C@H](N)C(=O)O)C(=O)NCc1ccc([N+](=O)[O-])cc1 | MDA-MB-231 | – | – | 72 h | relative to: vehicle | concentration increasing cytotoxicity | 320 µM |
| Cc1ccc(NC(=O)c2cc3c(=O)n4cccc(C)c4nc3n2C)cc1Cl | Vero E6 | MTT | – | – | – | IC50 | 64.4 ± 4.91 µM |
| CC(C)N(N=O)C(C)C | HepaRG, 2D | – | – | concentration not given, 24 h, highest tested concentration, hEGF 3 days | relative to: vehicle | relative survival | 77.8% |
| O=c1c(O)c(-c2ccc(O)c(O)c2)oc2cc(O)ccc12 | A549 | cell viability, MTS | – | 3 days, 90% cells viable | – | maximum non-toxic concentration | 121.9 ± 0.99 µM |
| C=C(C)[C@]12C[C@@H](COC(=O)c3ccccc3)[C@]34OC5(CCCCCCC[C@H](C)[C@@H]6[C@@H]3[C@]3(O[C@]6(C)OC3=O)[C@H](O)[C@@]3(CO)O[C@H]3[C@H]4[C@H]1O5)O2 | MT4 | cell growth or viability, ATP luminescence | – | – | – | IC50 | 3.4 µM |
| CCc1ccc(NC(=O)c2cc3c(=O)n4ccccc4nc3n2C)cc1 | Vero E6 | MTT | – | – | – | IC50 | 21.6 ± 1.64 µM |
| CC(C)(C)OC(=O)N1CCC2(CC1)N=C(N)N=C(N)N2c1cccc(Cl)c1 | MDCK | microscopy, altered cell morphology | – | – | – | minimum cytotoxic concentration | ≥ 20 µM |
| CC(C)(c1ccc(O)cc1)c1ccc(O)cc1 | human iPSC-derived cardiomyocytes | mitochondrial membrane potential, refers to: JC-10 granules | – | 30 min | – | point of departure | < 30 µM |
| CCCN1C(N)=NC(N)=NC12CCN(C(=O)C1CC1)CC2 | MDCK | microscopy, altered cell morphology | – | – | – | minimum cytotoxic concentration | > 100 µM |
| C=C(C[C@H](N)C(=O)O)C(=O)Nc1ccc(F)cc1 | MDA-MB-231 | – | – | 72 h | relative to: vehicle | concentration increasing cytotoxicity | 320 µM |
| CO[C@]1(CO)O[C@@H](n2ccc(=O)[nH]c2=O)C(F)(F)[C@@H]1O | HEL embryonic lung fibroblasts | cell morphology, microscopy | – | – | – | minimum cytotoxic concentration | > 100 µM |
| CCN(N=O)C(C)C | HepaRG 3D spheroids | cell viability | – | concentration not given, 24 h | relative to: vehicle | ATP level | 82.5% |
| CC(=O)OC[C@H]1O[C@@H](NC(=O)NC(=O)CCCc2ccc3c(c2)CCCC3)[C@H](OC(C)=O)[C@@H](OC(C)=O)[C@@H]1OC(C)=O | HEL fibroblasts | cell morphology | – | 3 days | – | minimal cytotoxic concentration | > 100 µM |
| CC[C@H](C)[C@H](NC(=O)[C@@H](NC(=O)[C@H](CS)NC(=O)[C@H](C)NC(=O)[C@H](CCCNC(=N)N)NC(=O)[C@H](CCCNC(=N)N)NC(=O)[C@H](CC(N)=O)NC(=O)[C@H](CCCNC(=N)N)NC(=O)[C@H](C)NC(=O)[C@H](CS)NC(=O)[C@H](CC(C)C)NC(=O)[C@@H](NC(=O)[C@@H](NC(=O)[C@H](CS)NC(=O)[C@H](CCCCN)NC(=O)[C@@H](N)CCCNC(=N)N)C(C)C)[C@@H](C)CC)C(C)C)C(=O)N[C@@H](CC(C)C)C(=O)N[C@@H](CS)C(=O)N[C@@H](CCCNC(=N)N)C(=O)O | human red blood cells | – | – | 128 µg/mL, 3 h, 37 °C | relative to: Triton X-100 | hemolysis | 3.54% |
| COc1cccc(N2C(N)=NC(N)=NC23CCN(C(=O)c2ccc(C(F)(F)F)cc2C)CC3)c1 | MDCK | microscopy, altered cell morphology | – | – | – | minimum cytotoxic concentration | > 100 µM |
| C[C@H](Cn1cnc2c(N)ncnc21)OCP(=O)(O)O | hCMEC/D3 | – | – | 5 µM, 1 h | – | intracellular concentration | 0.32 ± 0.08 ng/mL |
| Nc1nc(O)c2ncn(COC(CO)CO)c2n1 | HEL embryonic lung fibroblasts | cell morphology, microscopy | – | – | – | minimum cytotoxic concentration | 350 µM |
| CN(CCCC(=O)O)N=O | HepaRG 3D spheroids | cell viability | – | concentration not given, 24 h | relative to: vehicle | ATP level | 81% |
| CNC(=O)Oc1cccc2ccccc12 | human iPSC-derived cardiomyocytes | mitochondrial membrane potential, refers to: JC-10 granules | – | 30 min | – | point of departure | < 30 µM |

| Substance | cell line | assay | test system | setting | scale | endpoint | result |
| --- | --- | --- | --- | --- | --- | --- | --- |
| Clc1ccc(Cl)c(-c2c(Cl)ccc(Cl)c2Cl)c1Cl | differentiated HepaRG | CAR activation, agonist, refers to: CYP2B6 mRNA | – | 24 h | relative to: phenobarbital 2 mM | EC50 | 6.6 µM |
| Cl.NC1=NC2(CCCN(Cc3ccccc3)C2)N(c2ccccc2)C(N)=N1 (centres unmarked) | MDCK | microscopy, altered cell morphology | – | – | – | minimum cytotoxic concentration | > 100 µM |
| C[C@@H]1CCO[C@H]2Cn3cc(C(=O)NCc4ccc(F)cc4F)c(=O)c(O)c3C(=O)N12 | hCMEC/D3 | – | – | 10 µM, 1 h, 37 °C, 3-drug cART combination | – | intracellular accumulation | 267 ± 41 pmol/mg protein |
| O=C(CN(Cc1ccccc1)S(=O)(=O)NCc1cccc(Oc2ccccc2)c1)NCCN1CCOCC1 | HG23 norovirus replicon cells | – | – | 48 h | – | TD50 | 45 ± 13 µM |
| Cc1nn(Cc2ccc(O)c(C=O)c2)c(=O)[nH]c1=O | HEL fibroblasts | cell morphology alteration | – | – | – | minimum cytotoxic concentration | ≥ 20 µM |
| CGLIIQKNEC (disulfide 1-10 (inferred)) (cyclic, disulfide) | tumour cell line panel | LDH release | – | 75 µg/mL, 24 h, 2% serum | – | cytotoxicity | toxic |
| N=C(N)NN | RAW264.7 | – | – | – | relative to: cytotoxicity IC50 over antiglycation IC50 | selectivity ratio | > 1000 fold |
| COc1ccc2c3c([nH]c2c1)[C@H](CC(C)C)N1C(=O)[C@H](CCC(=O)OC(C)(C)C)NC(=O)[C@@H]1C3 | Jurkat-DNR | cytotoxicity, refers to: cell viability | – | – | – | TD50 | 2.84 µM |
| O=C(c1cc(Cc2n[nH]c(=O)c3ccccc23)ccc1F)N1CCN(C(=O)C2CC2)CC1 | MDA-MB-231 | – | – | 72 h | relative to: vehicle | concentration increasing cytotoxicity | 320 µM |
| O=NN1CCN(C2CCCC2)CC1 | HepaRG 3D spheroids | DNA damage, refers to: % tail DNA | – | 24 h | relative to: vehicle | lowest effective concentration | 312 µM |
| O=C(CNS(=O)(=O)NCc1cccc(Oc2ccccc2)c1)N1CCN(Cc2ccccc2)CC1 | HG23 norovirus replicon cells | – | – | 48 h | – | TD50 | 145 ± 20 µM |
| CCCCN(CCCC)N=O | HepaRG spheroids | micronucleus formation, flow cytometry | – | 24 h | relative to: vehicle control | lowest effective concentration | 500 µM |
| O=c1c(O)c(-c2ccc(O)c(O)c2)oc2c1ccc1ccccc12 | rat H4IIE | MTT | – | 20 or 50 µM, 24 h, added: cyclosporin A | relative to: control | viability | 65.6% |
| COc1cccc2c1C(=O)c1c(O)c3c(c(O)c1C2=O)C[C@@](O)(C(=O)CO)C[C@@H]3O[C@H]1C[C@H](N)[C@H](O)[C@H](C)O1 | HCT-8/ADR | flow cytometry, refers to: positive cells | – | 10 µg/mL, 4 h, 10% FBS | – | cellular uptake | ~20% |
| C=C(C[C@H](N)C(=O)O)C(=O)NCc1ccc(F)cc1 | MDA-MB-231 | – | – | 24 h | relative to: vehicle | concentration increasing cytotoxicity | 320 µM |
| CCN(CC)N=O | HepaRG 3D spheroids | cell viability | – | concentration not given, 24 h | relative to: vehicle | ATP level | 89.6% |
| CC(C)[C@H](N)C(=O)N1CCC[C@H]1C(=O)N[C@@H](Cc1ccccc1)C(=O)N[C@@H](Cc1c[nH]c2ccccc12)C(=O)N[C@@H](C)C(=O)O | Caco-2 | MTT | – | 0.5 and 1 mM, 4 h | – | viability | > 100% |
| COP(=S)(OC)Oc1ccc([N+](=O)[O-])c(C)c1 | Caco-2 | Hoechst and PI staining | – | 25 µM, 48 h | relative to: untreated | apoptotic cells ratio | 6.3 |
| CCCCNC(=O)OCC#CI | human iPSC-derived cardiomyocytes | mitochondrial membrane potential, refers to: JC-10 granules | – | 30 min | – | point of departure | < 30 µM |
| CON=C(N)c1ccc(-c2ccc(-c3ccc(C(N)=NOC)cc3)o2)cc1 | HEK293T transfected with CYP1B1 | cytotoxicity, resazurin | – | 72 h, without α-naphthoflavone | – | IC50 | 57.6 ± 1.6 µM |
| CC[C@H](C)[C@H](NC(=O)[C@H](CCCNC(=N)N)NC(=O)[C@@H](NC(=O)[C@H](CO)NC(=O)[C@@H](NC(=O)[C@H](CCC(N)=O)NC(=O)[C@H](CS)NC(=O)[C@H](CCCCN)NC(=O)[C@@H](N)CCCNC(=N)N)[C@@H](C)CC)C(C)C)C(=O)N[C@@H](CCCNC(=N)N)C(=O)N[C@@H](CC(N)=O)C(=O)N[C@@H](CCCNC(=N)N)C(=O)N[C@@H](CCCNC(=N)N)C(=O)N[C@@H](C)C(=O)N[C@@H](CC(N)=O)C(=O)N[C@H](C(=O)N[C@@H](CCCCN)C(=O)N[C@H](C(=O)N[C@@H](CO)C(=O)N[C@@H](CS)C(=O)N[C@@H](CC(N)=O)C(=O)O)[C@@H](C)CC)[C@@H](C)CC | human red blood cells | – | – | 128 µg/mL, 3 h, 37 °C | relative to: Triton X-100 | hemolysis | -0.11% |
| Cl[C@H]1[C@H](Cl)[C@@H](Cl)[C@@H](Cl)[C@H](Cl)[C@H]1Cl | human iPSC-derived cardiomyocytes | mitochondrial membrane potential, refers to: JC-10 granules | – | 30 min | – | point of departure | < 30 µM |
| Nc1ccn([C@@H]2O[C@H](CO)[C@@H](O)C2(F)F)c(=O)n1 | HEL embryonic lung fibroblasts | cell morphology, microscopy | – | – | – | minimum cytotoxic concentration | 20 µM |

Repeated from above:
| Substance | cell line | assay | test system | setting | scale | endpoint | result |
| --- | --- | --- | --- | --- | --- | --- | --- |
| N=C(N)NN | RAW264.7 | – | – | – | relative to: cytotoxicity IC50 over antiglycation IC50 | selectivity ratio | > 1000 fold |
| CC(C)N(N=O)C(C)C | HepaRG, 2D | – | – | concentration not given, 24 h, highest tested concentration, hEGF 3 days | relative to: vehicle | relative survival | 77.8% |
| Clc1ccc(Cl)c(-c2c(Cl)ccc(Cl)c2Cl)c1Cl | differentiated HepaRG | CAR activation, agonist, refers to: CYP2B6 mRNA | – | 24 h | relative to: phenobarbital 2 mM | EC50 | 6.6 µM |
